Measurements collected from several papers.
Compare with care: the assays were run in different laboratories.
Route: oral

| SMILES | assay | test system | setting | how to read | Cmax |
| --- | --- | --- | --- | --- | --- |
| O=C(COc1ccc(Cl)cc1)NC12CC(c3nnc([C@H]4C[C@@H](OC(F)(F)F)C4)o3)(C1)C2 |  | healthy human volunteers fasted, plasma | 400 mg single dose, arithmetic mean |  | 4450 nM |
| C=CCn1c(=O)c2cnc(Nc3ccc(N4CCN(C)CC4)cc3)nc2n1-c1cccc(C(C)(C)O)n1 |  | human | 250 mg once daily, cycle 1 day 17, together with: durvalumab 1500 mg IV | geometric mean | 1010 nM |
| CCOc1c([C@H](C)n2nc(C)c3c(N)ncnc32)cc(Cl)c(F)c1[C@@H]1CNC(=O)C1 |  | human, B-cell malignancies, plasma | 30 mg, day 15 |  | 2390 nM |
| Cl.[2H]C([2H])([2H])CC(=O)c1cnc(NC(=O)C2CC2)cc1Nc1cccc(-c2ncn(C([2H])([2H])[2H])n2)c1OC | geometric mean | human | 40 mg twice daily, day 14, fasted, tablet, multiple dose |  | 437 ng/mL |
| CC(C)[C@H](N)C(=O)NCCCS(=O)(=O)O |  | human both sexes, plasma | 256.5 mg once daily, day 1, fasted capsule |  | 8510 ng/mL |
| C[C@@H]1CCO[C@H]2Cn3cc(C(=O)NCc4ccc(F)cc4F)c(=O)c(O)c3C(=O)N12 |  | human paediatric patients, weight 6 to under sample A kg, plasma | 4.8 mg granules, steady state, geometric mean, population PK post-hoc, N 1 |  | 2370 ng/mL |
| COc1cc(N2CCC(N3CCN(C)CC3)CC2)ccc1Nc1ncnc(Nc2ccccc2S(=O)(=O)C(C)C)n1 |  | human, dose escalation arm, plasma | 25 mg, day 28, mean |  | 96.8 ng/mL |
| COc1ncc(-c2nc3c(n2C(C)C)[C@H](c2ccc(Cl)cc2)N(c2cc(Cl)cn(C)c2=O)C3=O)c(OC)n1 | LC-MS/MS | human, plasma | 25 mg, cycle 1 day 1, high-dose arm |  | 100 ng/mL |
